Published values pooled from the literature.
Every numbered part comes from another study and shows a few of its results, in no order.

Block 1 — method: protein binding microarray; form: double-stranded DNA, one strand shown; sample: in vitro; tested at: not given; baseline: not given; direction: higher = stronger binding
Target: Histone acetyltransferase KAT6A, both winged helices, GST fusion (KAT6A, Homo sapiens, UniProt Q92794, residues 1-181)
Setting: 8-mer, flanks averaged, mean of 2 arrays, mostly near background
Residues (chain): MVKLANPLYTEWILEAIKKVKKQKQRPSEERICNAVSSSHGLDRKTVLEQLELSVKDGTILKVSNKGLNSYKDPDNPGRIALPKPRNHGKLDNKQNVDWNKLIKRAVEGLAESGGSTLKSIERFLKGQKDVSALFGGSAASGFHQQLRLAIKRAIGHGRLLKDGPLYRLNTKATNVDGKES
`CGTGACGA` gave an E-score of 0.117.
`AAAGCAGG` has an E-score of -0.222.
With `TATGCGCA` the E-score was 0.319.
With `GATAAGCC` the E-score was -0.0807.
`GTCCCCAA` gave an E-score of -0.105.
For `CCTAGAGA`, the E-score was -0.142.

Block 2 — method: protein-binding microarray; form: double-stranded DNA, one strand shown; sample: in vitro; tested at: 2200 nM top; setting: 60-bp whole probe; together with: salmon DNA 0.4 mg/ml; baseline: random background probes; direction: higher = stronger binding
Target: Interferon regulatory factor 7, full length, phosphomimetic (IRF7, Homo sapiens, UniProt Q92985, residues 1-503, S471D/S472D/S475D/S476D/S477D/S483D/S484D/S487D)
Chain of UniProt Q92985 (whole entry, unmodified, looked up): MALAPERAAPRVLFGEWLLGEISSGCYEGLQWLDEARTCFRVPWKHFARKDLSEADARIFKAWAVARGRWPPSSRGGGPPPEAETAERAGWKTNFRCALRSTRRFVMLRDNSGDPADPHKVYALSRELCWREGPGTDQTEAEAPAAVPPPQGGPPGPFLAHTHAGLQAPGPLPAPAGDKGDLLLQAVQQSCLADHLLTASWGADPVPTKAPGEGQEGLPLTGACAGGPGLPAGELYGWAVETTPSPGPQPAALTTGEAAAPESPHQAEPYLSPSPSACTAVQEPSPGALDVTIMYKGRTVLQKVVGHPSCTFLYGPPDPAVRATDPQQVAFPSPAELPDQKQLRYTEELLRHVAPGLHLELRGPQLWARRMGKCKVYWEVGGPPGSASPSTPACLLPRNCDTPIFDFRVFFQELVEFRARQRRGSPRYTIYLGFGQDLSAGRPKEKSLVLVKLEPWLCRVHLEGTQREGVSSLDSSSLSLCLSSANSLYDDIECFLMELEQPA
Under “fitted relative affinity”, `GCCTAGCACATAGTGATAGCTCTGGTAAAGTGCTAGGTCTTGATTCGCTTGACGCTGCTG` is recorded as -0.492 z-score.
Under “fitted relative affinity”, `GCCTAGCACGACGAACTGAGTTTCGGGACGTGCTAGGTCTTGATTCGCTTGACGCTGCTG` is recorded as 2.59 z-score.
Under “fitted relative affinity”, `GCCTAGCACTTAGGTCTCGGGCTGGGTTAGTGCTAGGTCTTGATTCGCTTGACGCTGCTG` is recorded as -0.345 z-score.
For `GCCTAGCACGACGGTATCGACACTGCGGACGTGCTAGTCTTGATTCGCTTGACGCTGCTG`, “fitted relative affinity” read 0.00469 z-score.

Block 3 — method: universal PBM; form: double-stranded DNA, one strand shown; sample: in vitro; tested at: 600 nM; direction: higher = stronger binding
Target: Sal-like protein 4, full length isoform A (SALL4, Homo sapiens, UniProt Q9UJQ4, residues 1-1053)
Chain of UniProt Q9UJQ4 (whole entry, looked up): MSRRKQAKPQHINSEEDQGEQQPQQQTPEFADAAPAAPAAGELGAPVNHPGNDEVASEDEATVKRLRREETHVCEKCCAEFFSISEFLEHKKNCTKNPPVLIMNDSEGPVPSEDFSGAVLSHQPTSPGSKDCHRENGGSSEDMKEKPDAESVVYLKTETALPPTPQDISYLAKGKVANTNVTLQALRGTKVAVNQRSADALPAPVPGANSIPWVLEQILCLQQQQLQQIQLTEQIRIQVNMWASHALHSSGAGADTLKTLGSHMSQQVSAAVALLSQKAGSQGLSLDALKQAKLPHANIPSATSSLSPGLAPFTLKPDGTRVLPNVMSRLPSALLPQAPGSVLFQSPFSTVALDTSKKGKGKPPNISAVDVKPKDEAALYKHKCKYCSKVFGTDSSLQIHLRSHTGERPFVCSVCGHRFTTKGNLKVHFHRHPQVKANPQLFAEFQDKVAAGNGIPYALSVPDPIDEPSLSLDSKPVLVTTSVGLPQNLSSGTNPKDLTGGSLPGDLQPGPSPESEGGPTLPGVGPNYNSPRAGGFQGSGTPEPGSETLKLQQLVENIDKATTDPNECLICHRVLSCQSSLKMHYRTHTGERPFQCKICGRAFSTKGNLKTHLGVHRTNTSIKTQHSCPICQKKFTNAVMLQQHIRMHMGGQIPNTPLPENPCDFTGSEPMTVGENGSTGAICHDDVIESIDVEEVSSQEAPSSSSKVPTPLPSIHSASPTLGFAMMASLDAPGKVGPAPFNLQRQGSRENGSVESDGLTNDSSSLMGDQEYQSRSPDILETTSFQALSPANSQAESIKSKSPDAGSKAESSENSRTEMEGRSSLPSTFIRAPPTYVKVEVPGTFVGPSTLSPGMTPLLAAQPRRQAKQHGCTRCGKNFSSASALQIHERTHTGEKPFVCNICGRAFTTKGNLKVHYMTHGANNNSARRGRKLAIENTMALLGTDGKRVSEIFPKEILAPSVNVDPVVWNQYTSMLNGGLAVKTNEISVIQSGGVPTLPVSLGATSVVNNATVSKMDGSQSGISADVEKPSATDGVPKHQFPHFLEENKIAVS
Setting: 8-mer, flanks averaged, mean of replicates
For `GGATAATA`, the E-score was 0.34.
`AAAGGGTA` gave an E-score of 0.0907.
With `ATTATCAG` the E-score was 0.215.
`AGACGAGA` has an E-score of -0.0582.
`ACCGTCTC` gave an E-score of -0.0179.
The E-score of `AAAGTGCT` is reported as 0.143.
`GACTCCTA` has an E-score of -0.188.

Other studies, line by line
For `PhoQ, residues 284 288 289 292 302 303 DDMDFR`, the fold induction was 0.821 (PhoP, residues 12 14 15 18 19 TTLRV (Escherichia coli, UniProt P23836); Sort-seq, item: YFP reporter; E. coli; PhoQ-PhoP variant library, together with: 10 µM Mg2+; baseline: high Mg2+ state, higher = stronger signaling).

For quick reference, copied from above (block 3):
`AAAGGGTA` gave an E-score of 0.0907.
`GACTCCTA` has an E-score of -0.188.
